# Published values gathered from unrelated publications.
# Values joined by “and” are separate records of one study, mostly repeats; a detail may differ. Numbers after ± are the reported error.
# Integrin alpha-5/beta-1: Integrin alpha-5/beta-1 (Homo sapiens, UniProt P05556+P08648)
# Sequence of UniProt P08648 (whole entry, looked up): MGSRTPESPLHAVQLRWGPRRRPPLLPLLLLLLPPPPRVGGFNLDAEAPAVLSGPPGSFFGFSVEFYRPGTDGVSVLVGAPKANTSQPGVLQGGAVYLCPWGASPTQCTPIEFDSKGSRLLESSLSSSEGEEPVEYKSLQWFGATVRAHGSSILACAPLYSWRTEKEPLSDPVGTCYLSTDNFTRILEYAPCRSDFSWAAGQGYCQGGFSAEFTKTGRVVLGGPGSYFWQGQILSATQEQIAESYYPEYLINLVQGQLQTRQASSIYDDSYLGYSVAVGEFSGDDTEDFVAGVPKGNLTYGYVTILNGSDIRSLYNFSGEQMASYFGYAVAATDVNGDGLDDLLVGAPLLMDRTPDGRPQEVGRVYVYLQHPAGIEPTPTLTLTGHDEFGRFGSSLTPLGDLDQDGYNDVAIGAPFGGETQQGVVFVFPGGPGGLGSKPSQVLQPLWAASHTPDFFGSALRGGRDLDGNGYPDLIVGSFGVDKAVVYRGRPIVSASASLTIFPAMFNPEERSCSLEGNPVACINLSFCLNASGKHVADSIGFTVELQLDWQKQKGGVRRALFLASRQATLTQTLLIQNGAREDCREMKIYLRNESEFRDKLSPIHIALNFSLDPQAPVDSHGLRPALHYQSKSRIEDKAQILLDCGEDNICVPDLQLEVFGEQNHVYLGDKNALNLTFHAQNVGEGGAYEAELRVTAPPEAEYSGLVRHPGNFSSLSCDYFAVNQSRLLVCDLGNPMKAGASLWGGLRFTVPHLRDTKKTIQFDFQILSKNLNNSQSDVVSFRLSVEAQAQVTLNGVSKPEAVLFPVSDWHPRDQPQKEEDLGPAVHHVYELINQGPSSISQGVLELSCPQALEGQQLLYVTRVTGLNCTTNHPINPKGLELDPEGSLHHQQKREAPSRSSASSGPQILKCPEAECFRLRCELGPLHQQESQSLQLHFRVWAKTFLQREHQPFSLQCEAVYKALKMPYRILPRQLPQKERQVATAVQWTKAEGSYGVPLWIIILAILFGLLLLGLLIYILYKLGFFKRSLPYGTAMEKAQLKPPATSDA
# Sequence of UniProt P05556 (whole entry, looked up): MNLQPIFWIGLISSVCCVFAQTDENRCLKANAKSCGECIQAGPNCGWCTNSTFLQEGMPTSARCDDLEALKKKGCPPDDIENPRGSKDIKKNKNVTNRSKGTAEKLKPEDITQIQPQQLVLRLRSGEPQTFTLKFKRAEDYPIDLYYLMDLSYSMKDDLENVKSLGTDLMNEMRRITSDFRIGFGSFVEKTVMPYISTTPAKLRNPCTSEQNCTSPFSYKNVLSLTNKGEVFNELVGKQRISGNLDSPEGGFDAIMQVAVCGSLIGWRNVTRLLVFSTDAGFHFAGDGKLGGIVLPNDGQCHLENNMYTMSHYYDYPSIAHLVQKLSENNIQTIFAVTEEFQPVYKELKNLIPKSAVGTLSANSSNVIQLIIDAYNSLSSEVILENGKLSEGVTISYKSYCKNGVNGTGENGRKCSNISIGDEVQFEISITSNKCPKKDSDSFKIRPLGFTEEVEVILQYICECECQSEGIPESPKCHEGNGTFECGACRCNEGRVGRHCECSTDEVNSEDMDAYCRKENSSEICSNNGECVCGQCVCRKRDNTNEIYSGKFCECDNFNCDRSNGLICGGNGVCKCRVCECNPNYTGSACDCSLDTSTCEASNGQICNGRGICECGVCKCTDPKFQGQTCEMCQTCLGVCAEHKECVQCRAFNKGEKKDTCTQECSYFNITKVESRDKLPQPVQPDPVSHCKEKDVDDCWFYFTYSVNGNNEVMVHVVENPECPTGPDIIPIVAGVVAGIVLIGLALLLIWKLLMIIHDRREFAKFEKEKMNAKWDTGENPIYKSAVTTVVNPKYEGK
# CD274 with PD-1: Programmed cell death 1 ligand 1, with PD-1 (CD274, Homo sapiens, UniProt Q9NZQ7)
# Sequence of UniProt Q9NZQ7 (whole entry, looked up): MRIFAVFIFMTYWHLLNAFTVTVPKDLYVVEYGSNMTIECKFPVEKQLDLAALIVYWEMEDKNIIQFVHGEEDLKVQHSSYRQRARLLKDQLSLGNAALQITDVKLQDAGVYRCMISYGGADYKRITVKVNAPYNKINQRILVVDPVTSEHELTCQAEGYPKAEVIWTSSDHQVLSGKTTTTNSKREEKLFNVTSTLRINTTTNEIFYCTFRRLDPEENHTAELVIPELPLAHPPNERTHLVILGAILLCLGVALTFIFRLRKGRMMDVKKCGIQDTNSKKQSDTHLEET
# Thymocyte selection-associated high mobility group box protein TOX with KAT7: Thymocyte selection-associated high mobility group box protein TOX, with KAT7 (Homo sapiens, UniProt O94900)
# Sequence of UniProt O94900 (whole entry, looked up): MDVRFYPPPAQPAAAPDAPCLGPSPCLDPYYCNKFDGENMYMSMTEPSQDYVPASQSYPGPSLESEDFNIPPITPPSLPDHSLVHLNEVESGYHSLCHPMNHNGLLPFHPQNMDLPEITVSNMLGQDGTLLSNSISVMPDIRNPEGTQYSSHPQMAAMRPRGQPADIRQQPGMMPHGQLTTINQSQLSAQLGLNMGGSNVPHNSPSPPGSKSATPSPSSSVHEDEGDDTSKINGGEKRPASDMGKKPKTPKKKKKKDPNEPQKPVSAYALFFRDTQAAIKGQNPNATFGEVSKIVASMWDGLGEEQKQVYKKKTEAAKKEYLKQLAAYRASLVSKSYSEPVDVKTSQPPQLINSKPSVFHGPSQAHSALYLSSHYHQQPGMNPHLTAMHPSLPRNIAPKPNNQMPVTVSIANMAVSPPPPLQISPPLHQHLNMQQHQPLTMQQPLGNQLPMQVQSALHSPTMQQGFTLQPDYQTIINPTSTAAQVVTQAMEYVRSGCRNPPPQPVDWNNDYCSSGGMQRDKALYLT
# PSMB5: Proteasome Macropain subunit MB1 (PSMB5, Homo sapiens, UniProt P28074)
# Sequence of UniProt P28074 (whole entry, looked up): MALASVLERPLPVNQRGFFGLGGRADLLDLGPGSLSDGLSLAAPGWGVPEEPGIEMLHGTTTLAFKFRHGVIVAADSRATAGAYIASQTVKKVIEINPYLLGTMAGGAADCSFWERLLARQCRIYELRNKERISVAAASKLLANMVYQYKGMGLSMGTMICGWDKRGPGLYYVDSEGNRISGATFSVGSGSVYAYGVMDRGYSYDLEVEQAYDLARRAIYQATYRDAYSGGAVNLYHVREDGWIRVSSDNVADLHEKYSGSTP
# F2: Prothrombin (F2, Homo sapiens, UniProt P00734)
# CA9: Carbonic anhydrase 9 (CA9, Homo sapiens, UniProt Q16790)
# CELF1 del215-384: CUGBP Elav-like family member 1 (CELF1, Homo sapiens, UniProt Q92879, del215-384)
# Sequence of UniProt Q92879 (whole entry, unmodified, looked up): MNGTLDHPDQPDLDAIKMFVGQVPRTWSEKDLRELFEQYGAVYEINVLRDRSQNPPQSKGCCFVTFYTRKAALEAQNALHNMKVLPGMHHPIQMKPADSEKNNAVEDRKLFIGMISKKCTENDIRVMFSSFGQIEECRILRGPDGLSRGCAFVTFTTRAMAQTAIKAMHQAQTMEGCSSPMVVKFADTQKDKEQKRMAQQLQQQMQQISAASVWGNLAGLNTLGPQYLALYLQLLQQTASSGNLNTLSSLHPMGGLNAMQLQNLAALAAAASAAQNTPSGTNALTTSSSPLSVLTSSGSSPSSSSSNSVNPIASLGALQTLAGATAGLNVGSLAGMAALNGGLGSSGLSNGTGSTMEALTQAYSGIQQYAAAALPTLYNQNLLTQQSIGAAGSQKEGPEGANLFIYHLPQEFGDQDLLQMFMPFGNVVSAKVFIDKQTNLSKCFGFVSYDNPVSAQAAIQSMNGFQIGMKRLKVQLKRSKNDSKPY
# Methionyl-tRNA synthetase, putative: Methionyl-tRNA synthetase, putative (Trypanosoma brucei brucei, UniProt Q38C91)
# SETDB1: Histone-lysine N-methyltransferase SETDB1 (SETDB1, Homo sapiens, UniProt Q15047)
# CARM1: Histone-arginine methyltransferase CARM1 (CARM1, Homo sapiens, UniProt Q86X55)
# Sequence of UniProt Q86X55 (whole entry, looked up): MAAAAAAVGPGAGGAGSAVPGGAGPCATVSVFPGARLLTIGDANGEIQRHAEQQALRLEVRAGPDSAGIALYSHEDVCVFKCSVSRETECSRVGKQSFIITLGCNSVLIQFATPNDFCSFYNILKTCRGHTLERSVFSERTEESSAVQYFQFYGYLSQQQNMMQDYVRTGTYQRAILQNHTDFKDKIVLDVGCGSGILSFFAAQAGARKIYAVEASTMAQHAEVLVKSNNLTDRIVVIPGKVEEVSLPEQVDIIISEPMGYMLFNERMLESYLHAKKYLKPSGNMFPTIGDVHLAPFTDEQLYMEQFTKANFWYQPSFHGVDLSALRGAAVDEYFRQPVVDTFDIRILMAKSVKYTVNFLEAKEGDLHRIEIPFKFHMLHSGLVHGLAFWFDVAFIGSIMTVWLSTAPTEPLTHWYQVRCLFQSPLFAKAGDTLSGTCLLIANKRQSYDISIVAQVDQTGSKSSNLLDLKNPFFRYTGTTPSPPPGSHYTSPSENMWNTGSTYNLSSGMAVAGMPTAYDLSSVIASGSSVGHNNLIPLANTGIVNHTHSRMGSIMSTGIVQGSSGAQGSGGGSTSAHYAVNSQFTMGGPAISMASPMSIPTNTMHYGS
# Sequence of UniProt P61073 (whole entry, looked up): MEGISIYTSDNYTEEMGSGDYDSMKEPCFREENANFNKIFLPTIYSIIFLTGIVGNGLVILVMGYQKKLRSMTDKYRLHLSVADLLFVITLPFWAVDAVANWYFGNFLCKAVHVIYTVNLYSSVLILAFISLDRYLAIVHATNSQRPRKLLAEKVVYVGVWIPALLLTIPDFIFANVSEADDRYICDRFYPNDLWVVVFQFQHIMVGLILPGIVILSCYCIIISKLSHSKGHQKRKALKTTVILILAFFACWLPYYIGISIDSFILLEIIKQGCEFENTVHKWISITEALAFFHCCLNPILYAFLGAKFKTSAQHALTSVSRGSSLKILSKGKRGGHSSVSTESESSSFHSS
# Sequence of UniProt O60656 (whole entry, looked up): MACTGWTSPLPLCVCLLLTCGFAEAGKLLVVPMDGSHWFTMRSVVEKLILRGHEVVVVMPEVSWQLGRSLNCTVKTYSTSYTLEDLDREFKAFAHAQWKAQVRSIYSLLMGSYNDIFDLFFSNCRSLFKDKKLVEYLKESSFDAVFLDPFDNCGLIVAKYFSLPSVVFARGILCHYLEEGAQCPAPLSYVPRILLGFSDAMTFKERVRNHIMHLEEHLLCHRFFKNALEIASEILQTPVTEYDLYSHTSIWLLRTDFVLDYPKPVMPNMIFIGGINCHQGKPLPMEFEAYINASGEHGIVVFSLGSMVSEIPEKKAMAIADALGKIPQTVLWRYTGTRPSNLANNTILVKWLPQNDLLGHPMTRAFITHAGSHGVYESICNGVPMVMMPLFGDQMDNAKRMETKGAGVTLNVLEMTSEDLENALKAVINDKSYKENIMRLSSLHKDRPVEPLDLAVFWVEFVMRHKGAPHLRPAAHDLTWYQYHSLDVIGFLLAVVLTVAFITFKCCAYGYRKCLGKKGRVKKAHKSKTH
Structure (SMILES),target or system,test,test system,conditions,how to read,endpoint,value
CN1CCCC1C(=O)NC(Cc1ccc(-n2cccn2)cc1)B(O)O (centres unmarked),"20S proteasome beta subunits, part β2 subunit (Plasmodium falciparum, UniProt Q8I261+Q8I6T3)","β2 activity, inhibitor",,with: Ac-WLR-AMC,,IC50,> 10 µM
O=S(=O)(O)O/N=C(/Cc1ccccc1)S[C@@H]1O[C@H](CO)[C@@H](O)[C@H](O)[C@H]1O,"PTPN1 (Homo sapiens, UniProt P18031)","enzyme activity, inhibitor, absorbance",,,,IC50,11.1 µM
C[C@H](NC(=O)c1cccc(NC2=NCC(F)CN2)c1)C(=O)NC[C@H](NC(=O)c1c(Cl)cc(-c2ccccc2)cc1Cl)C(=O)O (relative stereo),Integrin alpha-5/beta-1,"cell adhesion, inhibitor",SW480,with: fibronectin 0.3 µg/mL,,IC50,20 µM
S=C(NCC1(N2CCCCC2)CCCCC1)NC1CC2CCC1C2 (centres unmarked),"CXCR4 (Homo sapiens, UniProt P61073)","β-arrestin recruitment, antagonist",,,,IC50,20 µM
CC(=O)OC1CCC2(C)C(CCC3(C)C2CC=C2C4C(C)C(C)CCC4(C(=O)O)CCC23C)C1(C)C (centres unmarked),"UGT1A9 (Homo sapiens, UniProt O60656)","enzyme activity, inhibitor",,,,IC50,> 100 µM
Cc1c(COc2cc(OCc3cccc(C#N)c3)c(CNC(C)(CO)CO)cc2Cl)cccc1-c1cccc(OCCCCCC(=O)NO)c1,CD274 with PD-1,"PD-1/PD-L1 binding, inhibitor, HTRF",,,,IC50,0.0204 µM
N#Cc1c(N)nc2c(c1-c1cccs1)Cc1cc(O)ccc1-2,Thymocyte selection-associated high mobility group box protein TOX with KAT7,"TOX-KAT7 binding, inhibitor, ELISA",,,no inhibition at 10 µM,IC50,9.9 µM
CC[C@H](C)[C@H](NC(=O)[C@H](CCCNC(=N)N)NC(=O)[C@@H]1CCCN1C(=O)[C@@H](N)CCCCN)C(=O)N[C@@H](CCCNC(=N)N)C(=O)N[C@@H](Cc1ccccc1)C(=O)O,"B1 bradykinin receptor (Rattus norvegicus, UniProt P97583)","ligand displacement, radioligand",,cell membranes,,IC50,0.59 µM
CC(C)C[C@H](NC(=O)[C@H](Cc1ccc(CN)cc1)NC(=O)[C@H](Cc1ccccc1)N=[N+]=[N-])C(=O)N[C@@H](CC1CC2CCC1C2)C(=O)[C@@]1(C)CO1 (stereo in doubt),PSMB5,competitive ABPP,Raji cell lysate,,,IC50,6.28 µM
Fc1ccc(Nc2nc(NC3CCCCC3)c3ccccc3n2)cc1F,"ADRB2 (Homo sapiens, UniProt P07550, G162A)","β-arrestin2 recruitment, antagonist, BRET",HEK293,"mutant G162A, with: isoprenaline 1 µM",,IC50,0.631 µM
Cc1c[nH]c2nccc(-c3ccc(C(=O)N[C@@H]4c5c(F)cc(C(F)F)cc5C[C@@H]4O)cn3)c12,"PRKACB (Homo sapiens, UniProt P22694)","enzyme activity, inhibitor",,,,IC50,0.0007 µM
COc1cccc(NC(=O)Nc2ccccc2O)c1,"SRPK3 (Homo sapiens, UniProt Q9UPE1)","enzyme activity, inhibitor, FRET",,,,IC50,5.6 µM
Cc1ccc(S(=O)(=O)N2N=Cc3ccsc3B2O)cc1,F2,"enzyme activity, inhibitor",,,,IC50,> 100 µM
CC1Cc2ccccc2N1Cc1ccoc1C(=O)Nc1ccc(S(N)(=O)=O)cc1 (centres unmarked),CA9,"enzyme activity, inhibitor",,,,IC50,0.012 µM
COCC(=O)N1CCc2cc(-c3csc(NC(=O)c4cc(OC)cc(OC)c4)n3)ccc21,"Scavenger receptor class B member 1 (Mus musculus, UniProt Q61009)","HDL binding, enhancer",ldlA[mSR-BI] cells,with: Alexa488-HDL,,IC50,0.035 µM
Nc1nonc1-c1nnc2c(n1)-c1ccccc1C2=O,"EHMT2 (Homo sapiens, UniProt Q96KQ7)","enzyme activity, inhibitor",,,,IC50,1.2 µM
Cc1nc(S(=O)(=O)Nc2cc3c(cc2Oc2cccc(COCC(C)C)c2)n(C)c(=O)n3C)cn1C,"Transcription initiation factor TFIID subunit 1, BD2 (TAF1, Homo sapiens, UniProt P21675)","enzyme activity, inhibitor, TR-FRET",,,,IC50,> 20 µM
Cc1cccc(-c2n[nH]c(=S)[nH]2)c1,CELF1 del215-384,"CELF1-RNA binding, inhibitor, fluorescence polarization",,"20 nM CELF1, with: 10 nM RNA",,IC50,0.48 ± 0.14 µM
COC1CCC(C[C@H](NC(=O)[C@H](CC(C)C)NC(=O)[C@H](Cc2ccc(CN)cc2)NC(=O)[C@H](Cc2ccccc2)N=[N+]=[N-])C(=O)[C@@]2(C)CO2)CC1 (some centres unmarked),PSMB5,competitive ABPP,Raji cell lysate,,,IC50,8.11 µM
CO[C@@H]1[C@@H](OC(=O)c2ccc(C)[nH]2)[C@@H](O)[C@H](Oc2ccc3c(O)c(NC(=O)c4c[nH]c(C(=O)Nc5c(O)c6ccc(O[C@@H]7OC(C)(C)[C@H](OC)[C@@H](OC(=O)c8ccc(C)[nH]8)[C@H]7O)c(C)c6oc5=O)c4C)c(=O)oc3c2C)OC1(C)C,human CMG helicase,helicase activity,,with: ATP 2 mM,,IC50,12.3 µM
O=C1NCCC12CCN(c1c(Cl)cncc1-c1ccc(N3CCOCC3)cc1)CC2,"Cyclin-dependent kinase 19, with cyclin C (CDK19, Homo sapiens, UniProt Q9BWU1)",ligand displacement,,,,IC50,0.008 µM
Cc1cc(C(=O)Nc2nc3cccc(C)c3n2[C@H]2CCCCN(C(=O)/C=C/CN(C)C)C2)ccn1,"BTK (Homo sapiens, UniProt Q06187)","enzyme activity, inhibitor, HTRF",,mean value,,IC50,0.00225 µM
Cc1nc(-c2c[nH]c(C(=O)Nc3ncccc3O)c2)cs1,"Trypsin-3 (Homo sapiens, UniProt P35030)","binding, microscale thermophoresis",,,,IC50,135 ± 3.2 µM
NC(=O)c1ncn(C2OC(COP(=O)(O)O)C(O)C2O)c1N (centres unmarked),"Fructose-1,6-bisphosphatase 1 (Mus musculus, UniProt Q9QXD6, G27P)","enzyme activity, inhibitor",,,,IC50,> 10000 µM
Cn1c(S)nnc1-c1ccc(F)cc1,CELF1 del215-384,"CELF1-RNA binding, inhibitor, fluorescence polarization",,"CELF1 20 nM, with: RNA 10 nM",,IC50,0.71 ± 0.03 µM
Fc1ccc2nc(NCCCNCc3cc(Cl)cc(Cl)c3)[nH]c2n1,"Methionyl-tRNA synthetase, putative","enzyme activity, inhibitor",,,,IC50,< 0.01 µM
NS(=O)(=O)c1ccc(NC(=O)C2CCCN(c3ccc(-c4ccco4)nn3)C2)cc1 (centres unmarked),CA9,"enzyme activity, inhibitor",,,,IC50,0.0141 µM
C#CCNC(=O)c1ccc(S(=O)(=O)N[C@@H](CCCCNC(C)=S)C(=O)N[C@@H](CCCNC(=N)N)C(=O)N[C@@H](CC2CCCCC2)C(N)=O)cc1,"SIRT1 (Homo sapiens, UniProt Q96EB6)","enzyme activity, inhibitor, fluorescence",,,,IC50,0.25 µM
Cc1nc2ccc(Br)cc2c(=O)n1N,F2,"enzyme activity, inhibitor",,,,IC50,9.05 µM
COc1cc(F)c(-c2cc(Cn3cnc4c(N)ncnc43)c(N3CCC[C@](N)([C@H](O)C(F)F)C3)cn2)cc1F,SETDB1,"enzyme activity, inhibitor",,,,IC50,> 10 µM
N#Cc1c(N)nc2c(c1-c1ccc(O)cc1)Cc1cc(O)ccc1-2,Thymocyte selection-associated high mobility group box protein TOX with KAT7,"TOX-KAT7 binding, inhibitor, ELISA",,,no inhibition at 10 µM,IC50,> 10 µM
C=CC(=O)Nc1ccc2nc(NCCCCCN(C)C)nc(NCCCCCCN(C)C)c2c1,SETDB1,"enzyme activity, inhibitor",,,,IC50,0.311 µM and 0.575 µM and 0.39 µM
CCCCCCCCCCCC=O,"uncharacterized protein (Spodoptera exigua, UniProt F1CEY0)","binding, fluorescence competitive binding",,with: 1-NPN 2.0 µM,,IC50,6.96 µM
CCOc1cc(CN2CCC3(CC2)CN(c2ccc(C(=O)O)cc2)C(=O)N3)c(C2CC2)cc1C,"SSTR5 (Homo sapiens, UniProt P35346, F264A)","cAMP level, antagonist, GloSensor",AD293,"F264A mutant, bandwidth 6.51, with: CST17 EC80 and forskolin",,IC50,0.00977 µM
Cc1ccc(N=C2CC(=O)c3sc(C)nc3C2=O)cc1,CARM1,"enzyme activity, inhibitor",,,,IC50,1.5 µM
N#Cc1ccnc(N2C(=O)CC[C@H]2C(=O)N(c2cncc(F)c2)[C@H](C(=O)NC2CC(F)(F)C2)c2ccccc2Cl)c1,"Isocitrate dehydrogenase [NADP], mitochondrial, heterodimer with wild-type (IDH2, Homo sapiens, UniProt P48735, R172K)","enzyme activity, inhibitor, NADPH consumption",,"16 h, reverse reaction",,IC50,72 µM
CC1(C)C(=O)N=C2C1=C(O)C(=O)c1ccccc12,CARM1,"enzyme activity, inhibitor",,,,IC50,2 µM
CC(C)C[C@H](NC(=O)[C@H](Cc1ccc(CN)cc1)NC(=O)[C@H](Cc1ccccc1)N=[N+]=[N-])C(=O)N[C@@H](CC1CCC2CCCCC2C1)C(=O)[C@@]1(C)CO1 (some centres unmarked),"Proteasome subunit beta type-9 (Homo sapiens, UniProt P28065)",competitive ABPP,Raji cell lysate,,,IC50,> 10 µM
O=C(CNC(=O)c1cccc(NC2=NCCCN2)c1)NC[C@H](NC(=O)c1c(Cl)cc(-c2ccccc2)cc1Cl)C(=O)O,Integrin alpha-5/beta-1,"cell adhesion, inhibitor",SW480,with: fibronectin 0.3 µg/mL,,IC50,0.00501 µM
Cc1n[nH]c(S)n1,CELF1 del215-384,"CELF1-RNA binding, inhibitor, fluorescence polarization",,"20 nM CELF1, with: 10 nM RNA",,IC50,1.28 ± 0.28 µM
CC(C)[C@@H]1NC(=O)[C@@H]2CCCN2C(=O)[C@H](CCCCN)NC(=O)[C@H](Cc2ccccc2)NC(=O)[C@H](Cc2ccccc2)NC(=O)[C@H](CC(=O)O)NC(=O)[C@H](CCC(=O)O)NC(=O)[C@H](Cc2ccc(O)cc2)NC(=O)[C@H](CC(=O)O)NC(=O)[C@H](CCC(=O)O)NC(=O)[C@H](CC(=O)O)NC(=O)[C@H](CCC(=O)O)NC(=O)[C@H](Cc2ccc(O)cc2)NC(=O)CSC[C@@H](C(=O)N[C@@H](Cc2ccc(O)cc2)C(=O)N[C@@H](Cc2ccccc2)C(N)=O)NC(=O)[C@H]([C@@H](C)O)NC1=O,"CCL2 (Homo sapiens, UniProt P13500)","chemokine binding, flow cytometry",THP-1,with: fluorescent CCL2 1.2 nM,,IC50,6.86 µM
Cc1c(COc2cc(OCc3cccc(C#N)c3)c(CNC(C)(CO)CO)cc2Cl)cccc1-c1cccc(OCCCCCCC(=O)NO)c1,CD274 with PD-1,"PD-1/PD-L1 binding, inhibitor, HTRF",,,,IC50,0.0224 µM
C=CC(=O)N1CC2C(=O)N(CCN(C)C)c3c(c4cc(Cl)c(-c5c(O)cccc5F)nc4n(-c4c(C)ccnc4C(C)C)c3=O)N2CC1C (centres unmarked),"ABCB1 (Homo sapiens, UniProt P08183)",inhibitor,MDCK-MDR1,,,IC50,9.31 µM
O=C(CNC(=O)c1cccc(NC2=NCC(F)(F)CN2)c1)NC[C@H](NC(=O)c1c(Cl)cc(-c2ccccc2)cc1Cl)C(=O)O,Integrin alpha-5/beta-1,cell adhesion,SW480,with: fibronectin,,IC50,0.0004 to 0.0005 µM
FC(F)(CNCc1cc(Cl)cc(Cl)c1)CNc1nc2cccnc2[nH]1,"Methionyl-tRNA synthetase, putative","enzyme activity, inhibitor",,,,IC50,< 0.01 µM
Cc1nn(-c2cccc(N)c2)c(=O)c2cnc(Nc3ccc(N4CCNCC4)cc3)nc12,"TSSK1B (Homo sapiens, UniProt Q9BXA7)","enzyme activity, inhibitor",,,,IC50,> 10 µM
Cc1ncsc1-c1ccc(C(C)NC(=O)C2CC(O)CN2C(=O)C(NC(=O)CCCCCCCCCCN2CCCC(Nc3ncc(Cl)c(Nc4ccccc4S(=O)(=O)C(C)C)n3)C2)C(C)(C)C)cc1 (centres unmarked),22Rv1,"RNA-seq, measured: TNFRSF19 mRNA",,concentration not given,reference: DMSO,log2 fold change,-1.41

# For quick reference, copied from above:
Structure (SMILES),target or system,test,test system,conditions,how to read,endpoint,value
C#CCNC(=O)c1ccc(S(=O)(=O)N[C@@H](CCCCNC(C)=S)C(=O)N[C@@H](CCCNC(=N)N)C(=O)N[C@@H](CC2CCCCC2)C(N)=O)cc1,"SIRT1 (Homo sapiens, UniProt Q96EB6)","enzyme activity, inhibitor, fluorescence",,,,IC50,0.25 µM
CC1(C)C(=O)N=C2C1=C(O)C(=O)c1ccccc12,CARM1,"enzyme activity, inhibitor",,,,IC50,2 µM
Cc1nc(S(=O)(=O)Nc2cc3c(cc2Oc2cccc(COCC(C)C)c2)n(C)c(=O)n3C)cn1C,"Transcription initiation factor TFIID subunit 1, BD2 (TAF1, Homo sapiens, UniProt P21675)","enzyme activity, inhibitor, TR-FRET",,,,IC50,> 20 µM
C=CC(=O)Nc1ccc2nc(NCCCCCN(C)C)nc(NCCCCCCN(C)C)c2c1,SETDB1,"enzyme activity, inhibitor",,,,IC50,0.311 µM and 0.575 µM and 0.39 µM
Cn1c(S)nnc1-c1ccc(F)cc1,CELF1 del215-384,"CELF1-RNA binding, inhibitor, fluorescence polarization",,"CELF1 20 nM, with: RNA 10 nM",,IC50,0.71 ± 0.03 µM
